Assay results from different studies.
Parts stem from different laboratories: compare values within a part only.

Study 1
Target: Histone acetyltransferase KAT6A, winged helix 1, GST fusion (KAT6A, Homo sapiens, UniProt Q92794, residues 1-85)
Technique: protein binding microarray
Form: double-stranded DNA, one strand shown
Matrix: in vitro
Tested at: not given
Setting: 8-mer, flanks averaged, mean of 2 arrays, mostly near background
Reference: not given
Direction: higher = stronger binding
Construct (chain): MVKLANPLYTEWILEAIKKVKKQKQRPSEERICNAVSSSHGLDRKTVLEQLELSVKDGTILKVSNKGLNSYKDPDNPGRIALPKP
| Oligonucleotide | E-score |
| --- | --- |
| AAGATTTC | 0.0191 |
| CCGAGGCC | 0.262 |
| GGGTTCAC | 0.214 |
| GCAGTAGC | 0.0473 |
| ACACGCAA | 0.0667 |
| ATGTAGTG | -0.224 |
| ACAGTGTC | -0.00067 |
| CATGTACA | -0.108 |
| GGATATAC | 0.0491 |
| GGTCCCTA | 0.0823 |
| CCCATTAA | -0.0578 |

Study 2
Target: Interferon regulatory factor 5, full length, phosphomimetic (IRF5, Homo sapiens, UniProt Q13568-2, residues 1-514, S451D/S453D/S456D/S462D)
Technique: protein-binding microarray
Form: double-stranded DNA, one strand shown
Matrix: in vitro
Tested at: 940 nM top
Setting: 60-bp whole probe
With: salmon DNA 0.4 mg/ml
Reference: random background probes
Direction: higher = stronger binding
All sequences stand within: GCCTAGCAC … GTCTTGATTCGCTTGACGCTGCTG
| Oligonucleotide | fitted relative affinity [z-score] |
| --- | --- |
| TTAGATTTTAGTATCGATTAGTGCTAG | 6.85 |
| GACGATTTCGGGTATCGAGGCGTGCTA | 1.35 |
| TGAGGTATCGGACTGGGTTAGTGCTAG | 1.99 |
| GACGGTTTCGGGTAACGGGACGTGCTA | 9.12 |
| TATAGCTGATACATATAGCCGTGCTAG | -0.312 |
| TTAGGTTTCTGTTTCGGTTAGTGCTAG | 10.2 |
| TCACTTCTGGATTTTTTACTGTGCTAG | 1.01 |
| GATGGTATCGACTTTCGGGACGTGCTA | 5.82 |
| TTAGATCTCAGCATCGATTAGTGCTAG | 0.0902 |
| GACGGTATGGGTCTCGGGACGTGCTAG | 0.156 |

Study 3
Target: Sal-like protein 4, full length isoform A (SALL4, Homo sapiens, UniProt Q9UJQ4, residues 1-1053)
Chain of UniProt Q9UJQ4 (whole entry, looked up): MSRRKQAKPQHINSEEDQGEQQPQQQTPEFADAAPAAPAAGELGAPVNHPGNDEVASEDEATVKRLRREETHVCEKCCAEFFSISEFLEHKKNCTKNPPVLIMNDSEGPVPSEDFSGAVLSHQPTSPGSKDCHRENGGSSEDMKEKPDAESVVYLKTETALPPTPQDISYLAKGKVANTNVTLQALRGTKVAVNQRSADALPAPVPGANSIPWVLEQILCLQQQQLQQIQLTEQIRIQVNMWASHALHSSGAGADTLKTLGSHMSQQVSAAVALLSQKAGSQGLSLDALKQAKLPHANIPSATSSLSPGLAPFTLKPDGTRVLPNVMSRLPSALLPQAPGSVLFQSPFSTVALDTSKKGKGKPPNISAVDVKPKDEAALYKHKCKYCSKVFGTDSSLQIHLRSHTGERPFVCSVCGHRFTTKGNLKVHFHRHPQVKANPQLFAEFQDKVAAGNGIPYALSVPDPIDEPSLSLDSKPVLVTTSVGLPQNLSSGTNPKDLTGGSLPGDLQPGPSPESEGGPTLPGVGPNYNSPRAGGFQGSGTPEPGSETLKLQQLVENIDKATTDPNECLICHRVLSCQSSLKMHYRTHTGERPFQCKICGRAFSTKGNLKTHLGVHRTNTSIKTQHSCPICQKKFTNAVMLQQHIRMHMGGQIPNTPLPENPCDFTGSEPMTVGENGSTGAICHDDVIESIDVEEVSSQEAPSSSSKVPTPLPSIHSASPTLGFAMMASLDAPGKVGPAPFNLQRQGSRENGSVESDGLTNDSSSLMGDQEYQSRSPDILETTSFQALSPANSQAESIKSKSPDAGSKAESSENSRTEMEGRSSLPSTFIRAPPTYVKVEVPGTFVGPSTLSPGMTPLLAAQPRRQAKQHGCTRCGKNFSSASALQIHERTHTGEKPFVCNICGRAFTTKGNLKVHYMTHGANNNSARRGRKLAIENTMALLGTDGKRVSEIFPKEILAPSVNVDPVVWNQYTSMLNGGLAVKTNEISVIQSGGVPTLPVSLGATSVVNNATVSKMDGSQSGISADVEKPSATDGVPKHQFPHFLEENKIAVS
Technique: universal PBM
Form: double-stranded DNA, one strand shown
Matrix: in vitro
Tested at: 600 nM
Setting: 8-mer, flanks averaged, mean of replicates
Direction: higher = stronger binding
| Oligonucleotide | E-score |
| --- | --- |
| CTCTAAAC | 0.0589 |
| CTCAGCCC | -0.308 |
| AAGACGAT | 0.0988 |
| ATCAATAA | 0.383 |
| GCCATGTA | 0.0453 |
| CTGAGGGA | -0.218 |
| ATCCCCCC | -0.315 |
| CAATATAC | 0.279 |
| GCGTCCAA | -0.173 |
| ACTAGCAC | -0.117 |
| CACTATGA | 0.132 |

Mixed results
| Molecule | target | test | test system | setting | scale | measurement | result |
| --- | --- | --- | --- | --- | --- | --- | --- |
| PhoQ, residues 284 288 289 292 302 303 AMDMFI | PhoP, residues 12 14 15 18 19 LWHSL (Escherichia coli, UniProt P23836) | Sort-seq, measured: YFP reporter | E. coli | PhoQ-PhoP variant library, with: 10 µM Mg2+ | reference: high Mg2+ state, higher = stronger signaling | fold induction | 0.755 |
